Measured values gathered from unrelated publications.
Each numbered part is a random draw from the data of one study; scales do not carry over between parts.

Set 1 — technique: RNA Bind-n-Seq; molecule type: RNA; medium: in vitro; tested at: 365 nM; reference: no-protein control; direction: higher = stronger binding
Target: RNA binding protein fox-1 homolog 2, RRM domain, GST-SBP tag (RBFOX2, Homo sapiens, UniProt O43251-10, residues 100-194)
Notes: natural RNA segment, single round, ends assumed
Constant ends, left off below: GGGAGUUCUACAGUCCGACGAUC … UGGAAUUCUCGGGUGCCAA
Construct (chain): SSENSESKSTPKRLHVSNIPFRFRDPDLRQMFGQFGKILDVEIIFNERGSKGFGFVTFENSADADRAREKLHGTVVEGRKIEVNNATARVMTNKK
Sequence | RBNS enrichment (R)
GCGCUCAACCGAAUUGCUGCUCAGGAGGUCCCCAUUGAGAUCAAGCCAGUAAACCCAUCCCCCCUGAGCCAGCUGCAGAGAAUGGAGCCCAAACAGAUGUUCUGGGUGCG | 0.65
AGAAGCCAAGUGGGACUCACUGCUGCCAUUCUCCUUGUGCUUGGUCUUCACUAGACCCCAGCCCCCUCUACCCUUCUUACCACCUCCCUAUAGCCUCAGCUUCAGAAGCC | 0.689
UGUUCAGAUGUCAUGUGCUGUCUACAUCAUGAGCUUUGGCUUAGGAGAACCUACAAAGCUGGCAGAGUUUUGUCUUGCAUUGCGCCUCUCAGUGAACCUUCUCAGUAAAU | 0.419
CAUCAUGAGCUGAGGUGGGACCACAGUCCCCAGGCUGCAUCGGCCUGCCUGUGUUUCCCUCUUAGGUGCAUUUAUCUUUUUGAUUUUUCCGAGUGGCAUUUAAGUGCACA | 0.894
GAAAUCCUCAGCCUGGAAACUGGGCCAGAUUGUUCCUUGCUUCAAAUAUCUUUUCCUAAAGAAGAUAAACCUAAGACUCAUUCCAGGUAGCUCAGUGCCAACUAAAACAA | 0.299

Set 2 — technique: protein-binding microarray; molecule type: double-stranded DNA, one strand shown; medium: in vitro; tested at: 2200 nM top; notes: 60-bp whole probe; together with: salmon DNA 0.4 mg/ml; reference: random background probes; direction: higher = stronger binding; constant ends, left off below: GCCTAGCAC … GTCTTGATTCGCTTGACGCTGCTG
Target: Interferon regulatory factor 7, full length, phosphomimetic (IRF7, Homo sapiens, UniProt Q92985, residues 1-503, S471D/S472D/S475D/S476D/S477D/S483D/S484D/S487D)
Target sequence (chain): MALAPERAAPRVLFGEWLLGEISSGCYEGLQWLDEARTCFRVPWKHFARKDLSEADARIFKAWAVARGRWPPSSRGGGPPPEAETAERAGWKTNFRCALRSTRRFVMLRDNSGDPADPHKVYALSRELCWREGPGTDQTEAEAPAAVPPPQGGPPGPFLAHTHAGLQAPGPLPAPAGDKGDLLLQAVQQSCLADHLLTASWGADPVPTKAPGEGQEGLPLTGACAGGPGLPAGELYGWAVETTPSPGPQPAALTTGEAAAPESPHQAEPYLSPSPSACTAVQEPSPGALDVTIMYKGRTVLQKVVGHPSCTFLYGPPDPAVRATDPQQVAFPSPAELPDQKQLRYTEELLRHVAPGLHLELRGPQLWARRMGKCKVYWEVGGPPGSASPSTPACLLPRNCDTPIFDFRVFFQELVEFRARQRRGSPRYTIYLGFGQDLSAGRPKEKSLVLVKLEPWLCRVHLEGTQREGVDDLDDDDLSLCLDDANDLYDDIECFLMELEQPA
Sequence | fitted relative affinity [z-score]
CTAGGTATCGGTCTCGGTTAGTGCTAG | 0.855
GACGATTTCGGGACTGAAGACGTGCTA | 0.949
GACGGAATCGGTTTCGGGACGTGCTAG | 4.56
GACGGACTGGGGTATCGAGACGTGCTA | -0.709
TTAGATATCAGTCTCGATTAGTGCTAG | 0.269

Set 3 — technique: protein-binding microarray; molecule type: double-stranded DNA, one strand shown; medium: in vitro; tested at: not given; direction: higher = stronger binding
Target: Transcriptional repressor CTCF (CTCF, Homo sapiens, UniProt P49711, residues 1-727, full length assumed)
Chain of UniProt P49711 (whole entry, looked up): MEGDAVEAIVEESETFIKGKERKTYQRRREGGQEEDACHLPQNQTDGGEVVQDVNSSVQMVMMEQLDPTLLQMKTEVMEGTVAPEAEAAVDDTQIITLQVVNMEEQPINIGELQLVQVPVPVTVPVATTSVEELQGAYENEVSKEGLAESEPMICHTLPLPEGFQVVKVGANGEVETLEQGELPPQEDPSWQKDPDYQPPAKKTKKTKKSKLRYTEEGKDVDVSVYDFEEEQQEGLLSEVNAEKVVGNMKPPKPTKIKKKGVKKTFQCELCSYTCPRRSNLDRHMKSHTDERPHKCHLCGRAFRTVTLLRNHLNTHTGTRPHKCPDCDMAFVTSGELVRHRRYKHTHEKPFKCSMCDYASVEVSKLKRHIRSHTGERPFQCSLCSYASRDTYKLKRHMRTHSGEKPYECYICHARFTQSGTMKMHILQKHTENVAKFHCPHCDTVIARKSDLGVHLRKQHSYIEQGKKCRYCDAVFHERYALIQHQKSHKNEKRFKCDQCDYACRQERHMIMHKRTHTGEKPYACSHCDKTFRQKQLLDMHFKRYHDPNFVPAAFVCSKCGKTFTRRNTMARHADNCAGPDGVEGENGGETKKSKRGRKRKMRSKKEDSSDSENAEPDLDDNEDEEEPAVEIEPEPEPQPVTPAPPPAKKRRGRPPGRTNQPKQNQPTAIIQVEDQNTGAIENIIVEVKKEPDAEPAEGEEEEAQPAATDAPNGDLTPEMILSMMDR
Notes: k-mer, scored over probes, only values ≥0.25
Sequence | E-score
TATACAAA | 0.299
GTTACATA | 0.263
AGTGCGCC | 0.291
AATGTAAA | 0.254
GCGCGTTA | 0.331
CGCGCAGA | 0.267
GAATGCGC | 0.286

Further values, each from its own experiment
Molecule | target | assay | system | setting | scale | endpoint | result
PhoQ, residues 284 288 289 292 302 303 TNASYF | PhoP, residues 12 14 15 18 19 NMSSL (Escherichia coli, UniProt P23836) | Sort-seq, refers to: YFP reporter | E. coli | PhoQ-PhoP variant library, together with: 10 µM Mg2+ | reference: high Mg2+ state, higher = stronger signaling | fold induction | 0.103

Excerpt of the above (set 3):
Sequence | E-score
AATGTAAA | 0.254
CGCGCAGA | 0.267
